Measurements pooled from the literature.
Numbers after ± are the reported error.
SCN10A: Sodium channel protein type 10 subunit alpha (SCN10A, Homo sapiens, UniProt Q9Y5Y9)
Chain of UniProt Q9Y5Y9 (whole entry, looked up): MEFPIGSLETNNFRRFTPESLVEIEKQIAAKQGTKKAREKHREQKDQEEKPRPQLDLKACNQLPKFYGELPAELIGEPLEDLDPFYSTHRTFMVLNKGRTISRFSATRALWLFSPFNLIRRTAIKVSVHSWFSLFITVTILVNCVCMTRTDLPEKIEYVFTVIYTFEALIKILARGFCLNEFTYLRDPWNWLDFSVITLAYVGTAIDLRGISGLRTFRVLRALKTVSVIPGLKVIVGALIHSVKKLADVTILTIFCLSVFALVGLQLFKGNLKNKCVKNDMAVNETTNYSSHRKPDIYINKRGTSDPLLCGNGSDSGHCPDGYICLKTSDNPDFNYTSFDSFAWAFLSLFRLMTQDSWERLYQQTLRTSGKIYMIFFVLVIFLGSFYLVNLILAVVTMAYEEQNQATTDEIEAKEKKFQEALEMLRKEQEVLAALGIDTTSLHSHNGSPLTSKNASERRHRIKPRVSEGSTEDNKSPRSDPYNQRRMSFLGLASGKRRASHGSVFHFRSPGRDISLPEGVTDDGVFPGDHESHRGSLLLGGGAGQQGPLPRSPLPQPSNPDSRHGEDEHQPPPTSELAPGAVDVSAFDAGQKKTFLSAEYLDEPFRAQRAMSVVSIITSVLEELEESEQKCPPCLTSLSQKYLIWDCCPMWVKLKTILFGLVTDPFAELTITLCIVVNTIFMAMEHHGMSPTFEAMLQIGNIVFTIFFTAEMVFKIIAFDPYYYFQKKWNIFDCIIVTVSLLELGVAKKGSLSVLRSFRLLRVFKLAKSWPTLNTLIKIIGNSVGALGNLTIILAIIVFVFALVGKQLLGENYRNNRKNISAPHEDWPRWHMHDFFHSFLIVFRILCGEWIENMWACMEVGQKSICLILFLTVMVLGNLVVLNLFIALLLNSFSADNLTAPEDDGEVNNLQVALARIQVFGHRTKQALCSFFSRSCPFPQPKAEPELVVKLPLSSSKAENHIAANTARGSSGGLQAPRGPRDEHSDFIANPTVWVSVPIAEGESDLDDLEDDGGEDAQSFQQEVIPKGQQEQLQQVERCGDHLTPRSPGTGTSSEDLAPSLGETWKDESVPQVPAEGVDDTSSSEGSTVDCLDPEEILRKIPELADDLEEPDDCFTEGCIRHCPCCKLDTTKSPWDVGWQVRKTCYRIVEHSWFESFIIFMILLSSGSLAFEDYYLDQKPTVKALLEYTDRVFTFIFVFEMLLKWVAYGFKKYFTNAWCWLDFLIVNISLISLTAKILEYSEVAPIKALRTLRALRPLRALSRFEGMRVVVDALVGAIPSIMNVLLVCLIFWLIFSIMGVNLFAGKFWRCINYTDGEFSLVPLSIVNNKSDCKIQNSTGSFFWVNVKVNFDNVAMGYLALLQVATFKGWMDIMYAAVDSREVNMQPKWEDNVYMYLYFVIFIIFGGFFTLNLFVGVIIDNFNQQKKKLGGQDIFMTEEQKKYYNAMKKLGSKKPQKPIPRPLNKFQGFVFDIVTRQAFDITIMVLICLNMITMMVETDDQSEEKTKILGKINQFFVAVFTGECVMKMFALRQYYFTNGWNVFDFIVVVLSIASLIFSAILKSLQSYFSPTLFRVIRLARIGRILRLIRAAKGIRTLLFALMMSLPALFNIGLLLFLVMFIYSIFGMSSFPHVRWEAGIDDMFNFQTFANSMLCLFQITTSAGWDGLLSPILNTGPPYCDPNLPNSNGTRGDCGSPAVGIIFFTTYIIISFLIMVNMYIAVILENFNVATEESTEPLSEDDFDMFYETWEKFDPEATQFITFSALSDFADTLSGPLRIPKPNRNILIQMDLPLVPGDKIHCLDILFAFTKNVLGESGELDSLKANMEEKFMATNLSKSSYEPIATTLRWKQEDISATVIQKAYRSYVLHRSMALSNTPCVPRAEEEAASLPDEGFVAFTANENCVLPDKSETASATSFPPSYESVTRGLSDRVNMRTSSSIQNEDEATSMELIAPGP
CHRM1: Muscarinic acetylcholine receptor M1 (CHRM1, Homo sapiens, UniProt P11229)
Chain of UniProt P11229 (whole entry, looked up): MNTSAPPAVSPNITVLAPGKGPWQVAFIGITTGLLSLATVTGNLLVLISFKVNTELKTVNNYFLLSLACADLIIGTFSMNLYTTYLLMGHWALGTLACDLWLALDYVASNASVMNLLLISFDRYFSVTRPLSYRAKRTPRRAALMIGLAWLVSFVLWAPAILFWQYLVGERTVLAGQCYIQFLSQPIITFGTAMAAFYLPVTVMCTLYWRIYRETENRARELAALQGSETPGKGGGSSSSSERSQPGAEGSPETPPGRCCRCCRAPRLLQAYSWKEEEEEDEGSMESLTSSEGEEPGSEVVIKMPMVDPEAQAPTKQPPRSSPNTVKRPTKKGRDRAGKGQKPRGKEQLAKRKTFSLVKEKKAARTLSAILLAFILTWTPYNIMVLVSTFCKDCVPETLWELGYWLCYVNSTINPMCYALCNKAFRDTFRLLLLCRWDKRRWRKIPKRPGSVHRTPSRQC
Chain of UniProt P04406 (whole entry, looked up): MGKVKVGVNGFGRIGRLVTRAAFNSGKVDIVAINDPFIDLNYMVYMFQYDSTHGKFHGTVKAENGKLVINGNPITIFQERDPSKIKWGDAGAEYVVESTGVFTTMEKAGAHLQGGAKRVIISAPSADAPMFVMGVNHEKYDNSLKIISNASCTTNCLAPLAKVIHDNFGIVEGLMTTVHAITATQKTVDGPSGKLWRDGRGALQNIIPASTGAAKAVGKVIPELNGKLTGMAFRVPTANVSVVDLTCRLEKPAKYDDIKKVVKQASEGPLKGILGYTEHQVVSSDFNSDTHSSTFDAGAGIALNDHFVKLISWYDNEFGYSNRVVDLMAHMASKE
Chain of UniProt P22309 (whole entry, looked up): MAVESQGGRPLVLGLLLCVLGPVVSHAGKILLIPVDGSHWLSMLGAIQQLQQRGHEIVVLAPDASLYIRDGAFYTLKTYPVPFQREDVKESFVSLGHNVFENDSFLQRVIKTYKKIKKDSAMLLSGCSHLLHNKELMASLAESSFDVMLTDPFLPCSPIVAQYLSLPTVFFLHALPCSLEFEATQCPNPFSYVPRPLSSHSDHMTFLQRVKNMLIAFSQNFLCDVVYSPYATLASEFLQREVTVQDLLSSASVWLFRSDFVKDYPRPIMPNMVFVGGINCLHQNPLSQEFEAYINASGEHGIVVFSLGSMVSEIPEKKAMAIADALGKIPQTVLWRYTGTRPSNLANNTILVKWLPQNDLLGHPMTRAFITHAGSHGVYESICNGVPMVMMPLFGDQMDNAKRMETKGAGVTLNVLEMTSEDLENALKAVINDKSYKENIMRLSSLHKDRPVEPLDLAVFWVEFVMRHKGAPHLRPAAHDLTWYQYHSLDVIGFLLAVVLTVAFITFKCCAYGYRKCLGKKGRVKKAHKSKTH
Chain of UniProt Q07820 (whole entry, looked up): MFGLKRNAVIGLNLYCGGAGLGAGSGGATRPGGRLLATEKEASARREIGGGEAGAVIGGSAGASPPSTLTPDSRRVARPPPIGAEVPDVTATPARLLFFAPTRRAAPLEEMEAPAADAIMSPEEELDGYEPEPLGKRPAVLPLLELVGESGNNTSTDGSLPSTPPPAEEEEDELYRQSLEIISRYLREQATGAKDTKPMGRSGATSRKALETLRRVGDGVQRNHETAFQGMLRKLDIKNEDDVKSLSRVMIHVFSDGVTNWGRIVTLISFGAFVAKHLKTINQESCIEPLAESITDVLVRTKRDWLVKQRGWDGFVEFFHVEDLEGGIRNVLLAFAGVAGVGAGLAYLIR
Chain of UniProt P21980 (whole entry, looked up): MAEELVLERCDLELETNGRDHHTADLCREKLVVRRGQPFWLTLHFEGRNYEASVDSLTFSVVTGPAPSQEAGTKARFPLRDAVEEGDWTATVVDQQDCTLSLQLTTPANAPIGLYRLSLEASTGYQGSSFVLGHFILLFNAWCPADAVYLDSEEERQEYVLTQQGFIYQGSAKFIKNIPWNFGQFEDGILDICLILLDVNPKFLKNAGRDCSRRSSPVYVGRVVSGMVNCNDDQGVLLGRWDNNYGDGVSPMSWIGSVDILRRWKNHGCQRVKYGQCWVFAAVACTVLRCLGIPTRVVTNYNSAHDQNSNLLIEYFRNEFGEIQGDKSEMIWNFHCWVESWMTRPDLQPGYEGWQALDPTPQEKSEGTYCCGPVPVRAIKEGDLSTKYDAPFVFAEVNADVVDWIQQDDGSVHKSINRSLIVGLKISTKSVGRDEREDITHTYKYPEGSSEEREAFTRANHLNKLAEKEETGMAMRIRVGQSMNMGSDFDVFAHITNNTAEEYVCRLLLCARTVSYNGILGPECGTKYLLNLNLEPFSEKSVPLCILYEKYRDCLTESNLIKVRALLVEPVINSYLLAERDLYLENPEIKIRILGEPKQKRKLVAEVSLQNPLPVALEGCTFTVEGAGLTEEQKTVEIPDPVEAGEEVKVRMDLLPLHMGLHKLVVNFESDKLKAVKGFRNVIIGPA
Chain of UniProt P06748 (whole entry, looked up): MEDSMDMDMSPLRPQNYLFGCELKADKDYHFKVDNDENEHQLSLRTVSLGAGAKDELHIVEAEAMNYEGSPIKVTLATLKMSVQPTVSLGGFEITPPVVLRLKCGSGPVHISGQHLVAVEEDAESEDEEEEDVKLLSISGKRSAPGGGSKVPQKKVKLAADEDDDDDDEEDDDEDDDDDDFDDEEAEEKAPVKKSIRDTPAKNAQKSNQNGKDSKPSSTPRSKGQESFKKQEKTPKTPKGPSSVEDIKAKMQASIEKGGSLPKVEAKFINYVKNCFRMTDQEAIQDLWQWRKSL
Chain of UniProt P12369 (whole entry, unmodified, looked up): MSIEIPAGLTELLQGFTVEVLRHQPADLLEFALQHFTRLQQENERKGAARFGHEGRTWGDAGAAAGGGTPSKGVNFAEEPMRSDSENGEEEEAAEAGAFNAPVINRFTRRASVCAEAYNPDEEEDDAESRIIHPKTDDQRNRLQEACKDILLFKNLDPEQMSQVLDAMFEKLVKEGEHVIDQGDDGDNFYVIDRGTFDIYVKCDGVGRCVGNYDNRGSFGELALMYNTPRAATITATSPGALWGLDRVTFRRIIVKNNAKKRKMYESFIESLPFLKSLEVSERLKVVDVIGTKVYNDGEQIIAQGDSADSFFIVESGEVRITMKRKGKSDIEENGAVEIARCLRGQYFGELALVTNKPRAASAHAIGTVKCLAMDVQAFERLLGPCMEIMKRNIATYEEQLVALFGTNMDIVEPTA

Substance | target | assay | test system | conditions | scale | endpoint | result
COC(=O)c1scc(C)c1NC(=O)C(C)N1C(C)COCC1C (stereo not drawn) | SCN10A | cell membrane chromatography |  |  | higher = stronger binding | capacity factor k′ | 12
DYKDEDLL | anti-FLAG M2 antibody | antibody binding, on-chip peptide display | peptide | 45 min, 25 °C |  | limit of detection | 0.14 nM
CCCCN1CCN(C(C)C(=O)Nc2c(C)csc2C(=O)OC)CC1 (stereo not drawn) | SCN10A | cell membrane chromatography |  |  | higher = stronger binding | capacity factor k′ | 122
O=c1cc(-c2ccccc2OCc2ccc(Br)cc2)ncn1C1CCCCC1O (stereo not drawn) | CHRM1 | allosteric agonist, IP1 accumulation | CHO-M1 cells | 1 µM, unit not given | baseline: maximum ACh response | change in baseline activity | 2 ± 4
CC(=O)Oc1ccccc1C(=O)O | unc-8 (Caenorhabditis elegans, UniProt Q21974, G387E) | ion current, two-electrode voltage clamp | Xenopus oocytes coexpressing MEC-2 | 30 µM, -85 mV | baseline: uninjected oocytes, positive = inhibition | current change | -0.071 µA
CCN(c1ccc(OC)cc1)S(=O)(=O)C1CC2OC1C(c1ccc(O)cc1)=C2c1ccc(O)cc1 (stereo not drawn) | ESR2 (Homo sapiens, UniProt Q92731) | reporter gene, antagonist | HepG2 | together with: estradiol 10 nM | baseline: E2 response, negative is inverse agonism | efficacy | -4 ± 4%
COc1ccc(C)c2sc(NS(=O)(=O)c3cc(C)ccn3)nc12 | CHRM4 (Homo sapiens, UniProt P08173) | calcium mobilization, positive allosteric modulator | CHO expressing hM4 and Gqi5 | concentration not given, together with: acetylcholine EC20 |  | activity | inactive
O=c1cc(-c2ccccc2OCc2ccccc2)ncn1C1CCCCC1O (stereo not drawn) | CHRM1 | positive allosteric modulator, IP1 accumulation | CHO-M1 cells | 10 µM, 60 min, 37 °C, together with: ACh | baseline: ACh alone, higher = stronger potentiation | ΔpEC50 of ACh | 1.83 ± 0.11 log units
CC[C@H](C)[C@H](NC(=O)[C@H](CCC(=O)O)NC(=O)[C@@H]1CCCN1C(=O)[C@H](CCCNC(=N)N)NC(C)=O)C(=O)N[C@@H](Cc1c[nH]c2ccccc12)C(=O)N[C@@H](Cc1ccc(O)cc1)C(=O)N[C@@H](C)C(=O)N[C@@H](CCC(N)=O)C(=O)NCC(=O)N[C@@H](CC(C)C)C(=O)N[C@@H](CCCCN)C(=O)N[C@@H](CCCNC(=N)N)C(=O)N[C@@H](Cc1ccccc1)C(=O)NCC(=O)N[C@@H](CC(=O)O)C(=O)N[C@@H](CCC(=O)O)C(=O)N[C@@H](Cc1ccccc1)C(=O)N[C@@H](CC(N)=O)C(=O)N[C@@H](C)C(=O)N[C@@H](Cc1ccc(O)cc1)C(=O)N[C@@H](Cc1ccc(O)cc1)C(=O)N[C@@H](C)C(=O)N[C@@H](CCCNC(=N)N)C(N)=O | MCL1 (Homo sapiens, UniProt Q07820) | binding, fluorescence polarization competition |  | 500 nM protein, together with: 10 nM fluorescent Hrk-BH3 | no competition up to this value | highest concentration without competition | > 10 µM
CCCCNc1ccc(C(=O)OCCN(CC)CC)c(OC)c1 | ryanodine receptor 2, sheep | [3H]ryanodine binding rate, inhibitor | cardiac SR vesicles |  |  | threshold concentration | > 1 µM
Cc1cc(Nc2ncc(Cl)c(Nc3ccccc3S(=O)(=O)C(C)C)n2)c(OC(C)C)cc1C1CCN(CC(=O)NCCOCCOCCOCCOCCOCCNc2cccc3c2C(=O)N(C2CCC(=O)NC2=O)C3=O)CC1 (stereo not drawn) | NPM/ALK (Nucleophosmin/ALK tyrosine kinase receptor) (NPM1/ALK, Homo sapiens, UniProt P06748+Q9UM73) | protein degradation, degrader, western blot | SU-DHL-1 | 100 nM, 2 h, after washout |  | recovery onset time | 8 h
ARRHSMGWAYKKKK | PLK1 (Homo sapiens, UniProt P53350, T210D) | substrate | peptide | Km of kinase, 1 h, 30 °C | baseline: optimal peptide | phosphorylation | ≤ 1%
NS(=O)(=O)c1ccc(COc2ccccc2-c2cc(=O)n(C3CCCCC3O)cn2)cc1 (stereo not drawn) | CHRM1 | positive allosteric modulator, IP1 accumulation | CHO-M1 cells | 10 µM, 60 min, 37 °C, together with: ACh | baseline: ACh alone, higher = stronger potentiation | ΔpEC50 of ACh | 1.52 ± 0.18 log units
C[C@H](CCCOc1ccc(C(=O)O)cc1)[C@H]1CC[C@H]2[C@@H]3CC=C4C[C@@H](O)CC[C@]4(C)[C@H]3CC[C@]12C | GPBAR1 (Homo sapiens, UniProt Q8TDU6) | CRE reporter gene, agonist, luciferase reporter | HEK293T transfected | 10 µM | baseline: TLCA | Emax | ~44%
C=CC(=O)NCCCC[C@H](NC(=O)OCc1ccccc1)C(N)=O | TGM2 (Homo sapiens, UniProt P21980) |  |  | pH 6.5 |  | kinact | 0.018 ± 0.00767 s⁻¹
CCCCCCCCCCCCCCCC(=O)N[C@@H](CCC(=O)NCCCC[C@H](NC(=O)[C@@H](NC(=O)[C@@H]1CCCN1C(=O)[C@H](CCC(=O)O)NC(=O)[C@H](CC(C)C)NC(=O)[C@@H]1CCCN1C(=O)[C@H](C)NC(=O)c1ccc2c(c1)C(=O)OC21c2ccc(O)cc2Oc2cc(O)ccc21)C(C)C)C(=O)N1CCC[C@H]1C(=O)NCC(=O)N[C@@H](CC(=O)O)C(=O)N[C@@H](CC(N)=O)C(=O)N[C@@H](C)C(=O)N[C@H](C(=O)N1CCC[C@H]1C(=O)N[C@@H](CCC(=O)O)C(=O)N[C@@H](CCC(N)=O)C(=O)N[C@@H](CCSC)C(=O)N[C@@H](C)C(=O)N[C@@H](CCC(N)=O)C(=O)N[C@@H](Cc1ccc(O)cc1)C(=O)N[C@@H](C)C(=O)N[C@@H](C)C(=O)N[C@@H](CC(=O)O)C(=O)N[C@@H](CC(C)C)C(=O)N[C@@H](CCCNC(=N)N)C(=O)N[C@@H](CCCNC(=N)N)C(=O)N[C@@H](Cc1ccc(O)cc1)C(=O)N[C@H](C(=O)N[C@@H](CC(N)=O)C(=O)N[C@@H](CCSC)C(=O)N[C@@H](CC(C)C)C(=O)N[C@H](C(=O)N[C@@H](CCCNC(=N)N)C(=O)N1CCC[C@H]1C(=O)N[C@@H](CCCNC(=N)N)C(=O)N[C@@H](Cc1ccc(O)cc1)C(N)=O)[C@@H](C)O)[C@@H](C)CC)[C@@H](C)O)C(=O)O | NPY4R (Homo sapiens, UniProt P50391) | radioligand displacement | COS-7 transiently expressing | 1 µM, 90 min, room temperature, together with: [3H]-hPP 1 nM | baseline: total binding | specific binding | 67%
NASC | GAPDH (Homo sapiens, UniProt P04406) | spectrophotometric Vmax | peptide | 10 µM, together with: enzyme 10 nM | baseline: vehicle | enzyme activity | 96.5 ± 6.15%
CCn1cc(-c2ccc(COc3ccccc3-c3cc(=O)n(C4CCCCC4O)cn3)cc2)cn1 (stereo not drawn) | CHRM1 | allosteric agonist, IP1 accumulation | CHO-M1 cells | 10 µM, unit not given | baseline: maximum ACh response | change in baseline activity | 82 ± 3
C=CC(C)(C)c1cc2c(cc1O)OC[C@H](c1cc(-c3oc4cc(O)ccc4c3C(=O)c3cc(C(C)(C)C=C)c(O)cc3O)c(O)cc1O)C2 | quinone reductase | inducer | Hepa1c1c7 |  |  | concentration doubling activity | 2.1 µM
CN(C)C(=O)CCSC(SCCC(=O)O)c1cccc(/C=C/c2ccc3ccc(Cl)cc3n2)c1 (stereo not drawn) | UGT1A1 (Homo sapiens, UniProt P22309) | enzyme activity, inhibitor |  | 20 µM |  | remaining activity | 25.8%
[Na+].[Na+].[Na+].[O]=[V]([O-])([O-])[O-] | ALPI (Bos taurus, UniProt P19111) |  |  | 0.76 µM, together with: DiFMUP substrate |  | Km | 0.31 ± 0.04 µM
N[C@@H](Cc1ccc(O)c(O)c1)C(=O)O | DOPA 4,5-dioxygenase (Anabaena cylindrica, UniProt K9ZE23) | substrate, spectrophotometry |  | pH 7.0, 25 °C, together with: sodium ascorbate 100 mM |  | substrate inhibition constant | 31.9 µM
c1ccc2[nH]ccc2c1 | Dehaloperoxidase B, ferric (Amphitrite ornata, UniProt Q9NAV7) | substrate, HPLC |  | 500 µM, 5 min, pH 7, 25 °C, 5% methanol, together with: H2O2 |  | conversion | 24.1%
O=C(O[C@@H]1Cc2c(O)cc(O)cc2O[C@@H]1c1cc(O)c(=O)c2c(O)c(O)cc([C@H]3Oc4cc(O)cc(O)c4C[C@H]3O)c2c1)c1cc(O)c(O)c(O)c1 | Protein immune deficiency (imd, Drosophila melanogaster, UniProt Q7K4Z4) | inhibitor, SDD-AGE densitometry |  | 100 µM, 30 min, room temperature |  | reduction of aggregates | 58.4%
CCCN(Cc1ccccc1)C(=O)c1cc(C)c(C)s1 | ATP2A2 (Sus scrofa, UniProt P11607) | enzyme activity, NADH-coupled | porcine cardiac SR vesicles | up to 50 µM |  | Ca2+-ATPase activity | inactive
CNC(=O)c1ccc(COc2ccccc2-c2cc(=O)n(C3CCCCC3O)cn2)cc1 (stereo not drawn) | CHRM1 | positive allosteric modulator, IP1 accumulation | CHO-M1 cells | 1 µM, 60 min, 37 °C, together with: ACh | baseline: ACh alone, higher = stronger potentiation | ΔpEC50 of ACh | 1.22 ± 0.69 log units
Nc1nc2c(ncn2[C@@H]2O[C@@H]3COP(=O)(O)O[C@H]3[C@H]2O)c(=O)[nH]1 | cAMP-dependent protein kinase type II-beta regulatory subunit, holoenzyme with catalytic subunit (Prkar2b, Rattus norvegicus, UniProt P12369, S112A) | PKA holoenzyme activation, activator, fluorescence anisotropy |  |  | baseline: RIIβ over RIα, higher = RIIβ-selective | selectivity ratio | 3

Some of these lines once more:
Substance | target | assay | test system | conditions | scale | endpoint | result
ARRHSMGWAYKKKK | PLK1 (Homo sapiens, UniProt P53350, T210D) | substrate | peptide | Km of kinase, 1 h, 30 °C | baseline: optimal peptide | phosphorylation | ≤ 1%
O=c1cc(-c2ccccc2OCc2ccc(Br)cc2)ncn1C1CCCCC1O (stereo not drawn) | CHRM1 | allosteric agonist, IP1 accumulation | CHO-M1 cells | 1 µM, unit not given | baseline: maximum ACh response | change in baseline activity | 2 ± 4
NASC | GAPDH (Homo sapiens, UniProt P04406) | spectrophotometric Vmax | peptide | 10 µM, together with: enzyme 10 nM | baseline: vehicle | enzyme activity | 96.5 ± 6.15%
NS(=O)(=O)c1ccc(COc2ccccc2-c2cc(=O)n(C3CCCCC3O)cn2)cc1 (stereo not drawn) | CHRM1 | positive allosteric modulator, IP1 accumulation | CHO-M1 cells | 10 µM, 60 min, 37 °C, together with: ACh | baseline: ACh alone, higher = stronger potentiation | ΔpEC50 of ACh | 1.52 ± 0.18 log units
